Experimental data pooled from the literature.
Compare with care: the assays were run in different laboratories.

`C=Cc1c(C)c2cc3nc(c(CC(=O)O)c4[nH]c(cc5nc(cc1[nH]2)C(C)=C5CC)c(C)c4C(=O)O)[C@@H](CCC(=O)NCCCC[C@H](NC(C)=O)C(=O)N[C@@H](Cc1ccccc1)C(=O)N[C@@H](Cc1ccccc1)C(=O)N[C@H](C(=O)N[C@@H](CC(C)C)C(=O)N[C@@H](CCCCN)C(=O)N[C@@H](CO)C(=O)NCC(=O)N[C@@H](CCC(N)=O)C(=O)N[C@@H](Cc1ccc(O)cc1)C(=O)N[C@@H](C)C(=O)N[C@@H](CO)C(=O)N[C@@H](Cc1ccc(O)cc1)C(=O)N[C@@H](Cc1c[nH]cn1)C(=O)N[C@@H](CS)C(=O)N[C@@H](Cc1c[nH]c2ccccc12)C(=O)N[C@@H](CS)C(=O)N[C@@H](Cc1c[nH]c2ccccc12)C(=O)N[C@@H](CCCNC(=N)N)C(=O)N[C@@H](CC(=O)O)C(=O)N1CCC[C@H]1C(=O)NCC(=O)N[C@@H](CCCNC(=N)N)C(=O)N[C@@H](CO)C(=O)NCC(=O)NCC(=O)N[C@@H](CO)C(=O)N[C@@H](CCCCN)C(N)=O)C(C)C)[C@@H]3C`: “time to peak fluorescence” 24 h (ex vivo fluorescence imaging; mouse, 4T1 tumour-bearing, tumour; intravenous, 13 mg/kg, single dose).
Under “time to return to baseline”, `CCCCCC1=C(NCC)C(=O)C(C/C=C(\C)CCC=C(C)C)=C(O)C1=O` is recorded as 24 h (CD-1 mouse, plasma; oral, 50 mg/kg).
For `CCCCCCCC/C=C\CCCCCCCCOP(O)(O)=S.N`, “time to disappearance of toxic signs” read at most 2 h (mouse; subcutaneous, 50 mg/kg).
`CC(C)C[C@@H]1NC(=O)[C@H](CO)NC(=O)[C@H](CC(=O)O)NC(=O)[C@H](C(C)C)NC(=O)[C@H](CC(=O)O)NC(=O)[C@H](C)NC(=O)[C@H](CO)NC(=O)[C@H](CCCNC(=N)N)NC(=O)[C@H](CO)NC(=O)[C@H](Cc2c[nH]cn2)NC(=O)[C@@H](N)CSSC[C@@H](C(=O)N2CCC[C@H]2C(=O)N[C@@H](CCC(=O)O)C(=O)N[C@@H](CCCCN)C(=O)N[C@@H](C)C(=O)N2CCC[C@H]2C(=O)N2CCC[C@H]2C(=O)N2CCC[C@H]2C(=O)N[C@@H](CCC(N)=O)C(=O)N[C@@H](CCCCN)C(=O)N2CCC[C@H]2C(=O)N[C@@H](CO)C(=O)N[C@@H](Cc2c[nH]cn2)C(=O)N[C@@H](CCC(=O)O)C(=O)NCC(=O)N[C@@H](CO)C(=O)N[C@@H](Cc2ccc(O)cc2)C(=O)N[C@@H](CC(C)C)C(=O)N[C@@H](CC(C)C)C(=O)N[C@@H](CCC(N)=O)C(=O)N2CCC[C@H]2C(=O)O)NC(=O)[C@@H]2CCCN2C(=O)CNC(=O)[C@@H]2CCCN2C(=O)[C@H](CO)NC(=O)[C@H](CO)NC(=O)[C@H](CC(N)=O)NC(=O)[C@@H]2CCCN2C(=O)[C@H](CO)NC(=O)[C@H](CO)NC(=O)[C@H](CCC(=O)O)NC(=O)[C@H](CO)NC1=O`: “time to return to baseline plasma level” at most 4 h (ELISA; mouse, plasma; intravenous, 900 nmol/kg).
`CC[C@H](C)[C@H](NC(=O)[C@H](C)NC(=O)[C@H](CCCCN)NC(=O)[C@H](CC(C)C)NC(=O)[C@H](Cc1ccccc1)NC(=O)[C@@H](N)CC[Se]C)C(=O)N[C@@H](CCCCN)C(=O)N[C@@H](CCCCN)C(=O)N[C@@H](Cc1ccccc1)C(=O)NCC(=O)N[C@@H](CCCCN)C(=O)N[C@@H](CCC(=O)O)C(=O)N[C@@H](Cc1ccccc1)C(=O)N[C@@H](CCCCN)C(=O)N[C@@H](CCCCN)C(=O)N[C@H](C(=O)NCC(=O)N[C@@H](C)C(=O)N[C@@H](CCCCN)C(=O)N[C@@H](CC(C)C)C(=O)N[C@@H](CCCCN)C(=O)O)[C@@H](C)CC` — result for “time above MBC”: 5.15 min (measured: selenium; mouse, serum; intraperitoneal, 70 mg/kg, together with: MBC 4 mg/L).
For `N=C(N)NCCC[C@H](NC(=O)[C@H](CCCNC(=N)N)NC(=O)[C@H](Cc1ccccc1)NC(=O)[C@H](Cc1c[nH]c2ccccc12)NC(=O)[C@H](Cc1c[nH]c2ccccc12)NC(=O)[C@H](Cc1ccccc1)NC(=O)[C@H](CCCNC(=N)N)NC(=O)[C@H](CCCNC(=N)N)NC(=O)[C@@H](N)Cc1ccccc1)C(=O)N[C@@H](Cc1ccccc1)C(N)=O`, “time to normal behaviour” read at most 2 h (ICR mouse, female; intraperitoneal, 20 mg/kg).
Under “time to maximum brain uptake”, `CCN(CCCCOc1ccc(CCC(=O)N2CCC(Cc3ccccc3)CC2)cc1O[11CH3])Cc1ccccc1` is recorded as about 2 min (PET-CT; mouse, brain; intravenous).
`Cc1ccccc1CN1CCC(O)(c2ccc(Cl)c(C(F)(F)F)c2)CC1`: “time of second peak concentration” 8 h (LC-MS; BALB/c mouse, serum; intraperitoneal, 50 mg/kg).
`CC[C@H](C)[C@H](NC(=O)[C@H](C)NC(=O)[C@H](CCCCN)NC(=O)[C@H](CC(C)C)NC(=O)[C@@H](N)Cc1ccccc1)C(=O)N[C@@H](CCCCN)C(=O)N[C@@H](CCCCN)C(=O)N[C@@H](Cc1ccccc1)C(=O)NCC(=O)N[C@@H](CCCCN)C(=O)N[C@@H](CCC(=O)O)C(=O)N[C@@H](Cc1ccccc1)C(=O)N[C@@H](CCCCN)C(=O)N[C@@H](CCCCN)C(=O)N[C@H](C(=O)NCC(=O)N[C@@H](C)C(=O)N[C@@H](CCCCN)C(=O)N[C@@H](CC(C)C)C(=O)N[C@@H](CCCCN)C(=O)O)[C@@H](C)CC` — result for “time above MBC”: 5.15 min (measured: selenium; mouse, serum; intraperitoneal, 70 mg/kg, together with: MBC 4 mg/L).
`C=Cc1c(C)c2cc3nc(c(CC(=O)O)c4[nH]c(cc5nc(cc1[nH]2)C(C)=C5CC)c(C)c4C(=O)O)[C@@H](CCC(=O)NCCCC[C@H](NC(C)=O)C(=O)N[C@@H](Cc1ccccc1)C(=O)N[C@@H](Cc1ccccc1)C(=O)N[C@H](C(=O)N[C@@H](CC(C)C)C(=O)N[C@@H](CCCCN)C(=O)N[C@@H](CO)C(=O)NCC(=O)N[C@@H](CCC(N)=O)C(=O)NCC(=O)N[C@@H](Cc1ccc(O)cc1)C(=O)N[C@@H](CCCNC(=N)N)C(=O)N[C@@H](Cc1c[nH]c2ccccc12)C(=O)N[C@@H](CC(=O)O)C(=O)N[C@@H](CO)C(=O)N[C@@H](Cc1ccc(O)cc1)C(=O)N[C@@H](CCCNC(=N)N)C(=O)N[C@@H](Cc1c[nH]c2ccccc12)C(=O)N[C@@H](Cc1c[nH]cn1)C(=O)N1CCC[C@H]1C(=O)N[C@@H](CO)C(=O)N[C@@H](CS)C(=O)N[C@@H](C)C(=O)N[C@@H](CS)C(=O)NCC(=O)NCC(=O)N[C@@H](CO)C(=O)N[C@@H](CCCCN)C(N)=O)C(C)C)[C@@H]3C` — result for “time to peak fluorescence”: 24 h (ex vivo fluorescence imaging; mouse, 4T1 tumour-bearing, tumour; intravenous, 13 mg/kg, single dose).
For `O=c1cc(-c2ccccc2)oc2c(Br)c(O)c(O)c(O)c12`, “time of secondary peak” read 12 h (C57BL/6 mouse, plasma; oral, 250 mg/kg, enterohepatic recirculation).

Excerpt of the above:
`C=Cc1c(C)c2cc3nc(c(CC(=O)O)c4[nH]c(cc5nc(cc1[nH]2)C(C)=C5CC)c(C)c4C(=O)O)[C@@H](CCC(=O)NCCCC[C@H](NC(C)=O)C(=O)N[C@@H](Cc1ccccc1)C(=O)N[C@@H](Cc1ccccc1)C(=O)N[C@H](C(=O)N[C@@H](CC(C)C)C(=O)N[C@@H](CCCCN)C(=O)N[C@@H](CO)C(=O)NCC(=O)N[C@@H](CCC(N)=O)C(=O)N[C@@H](Cc1ccc(O)cc1)C(=O)N[C@@H](C)C(=O)N[C@@H](CO)C(=O)N[C@@H](Cc1ccc(O)cc1)C(=O)N[C@@H](Cc1c[nH]cn1)C(=O)N[C@@H](CS)C(=O)N[C@@H](Cc1c[nH]c2ccccc12)C(=O)N[C@@H](CS)C(=O)N[C@@H](Cc1c[nH]c2ccccc12)C(=O)N[C@@H](CCCNC(=N)N)C(=O)N[C@@H](CC(=O)O)C(=O)N1CCC[C@H]1C(=O)NCC(=O)N[C@@H](CCCNC(=N)N)C(=O)N[C@@H](CO)C(=O)NCC(=O)NCC(=O)N[C@@H](CO)C(=O)N[C@@H](CCCCN)C(N)=O)C(C)C)[C@@H]3C`: “time to peak fluorescence” 24 h (ex vivo fluorescence imaging; mouse, 4T1 tumour-bearing, tumour; intravenous, 13 mg/kg, single dose).
